Published values gathered from unrelated publications.
Lines come from different studies, so protocols differ. Numbers after ± are the reported error.

Structure (SMILES) | assay | system | setting | scale | measurement | value
NC(=O)CC[C@@H]1NC(=O)[C@H](Cc2ccccc2)NC(=O)[C@H](Cc2ccc(O)cc2)NC(=O)CCSSC[C@@H](C(=O)N2CCC[C@H]2C(=O)N[C@H](CCCN=C(N)N)C(=O)NCC(N)=O)NC(=O)[C@H](CC(N)=O)NC1=O | UPLC-MS/MS | processed plasma extract | 156.23 pg/mL, 48 h, 10 °C, autosampler | – | processed sample stability | 97.7%
CC(C)Cc1ccc(C(C)C(=O)O)cc1 (stereo not shown) | mitochondrial swelling | BALB/cByJ female mouse liver mitochondria | 30 min, added: succinate + rotenone | relative to: CaCl2 maximal swelling | EC20 | > 200 µM
COc1c(O)cc2oc3cc(O)cc(O)c3c(=O)c2c1C/C=C(\C)CCC=C(C)C | UHPLC, non-compartmental | mice, plasma | oral, 700 mg/kg, virgin coconut oil suspension | – | AUC(0-24 h) | 561000 ± 78000 ng·h/mL
COc1cccc(N2CCN(C3=Nc4c(F)cccc4[C@H](CC(=O)O)N3c3cc(C(F)(F)F)ccc3OC)CC2)c1 | UHPLC-MS/MS | healthy women, plasma | intravenous infusion, 120 mg single dose, 30 min infusion, HPβCD formulation | – | clearance | 157 ± 45.1 mL/min
CCCC[C@@H]1NC(=O)[C@@H](NC(=O)[C@H](CCC(=O)O)NC(=O)CNC(=O)CN2CCN(CC(=O)O)CCN(CC(=O)O)CCN(CC(=O)O)CC2)CCCCNC(=O)C[C@@H](C(N)=O)NC(=O)[C@H](C(C)C)NC(=O)[C@@H]2CCCN2C(=O)[C@H](CCCNC(=N)N)NC(=O)CNC(=O)[C@H](Cc2c[nH]c3ccccc23)NC(=O)[C@H](CCCNC(=N)N)NC(=O)[C@@H](Cc2ccccc2)NC(=O)[C@H](Cc2c[nH]cn2)NC(=O)[C@H](CCC(=O)O)NC1=O [indium-111 labelled] | – | normal C57 mice, bone | intravenous, 0.037 MBq, 4 h | – | tissue uptake | 0.06 ± 0.04 %ID/g
CCCC[C@H](NC(C)=O)C(=O)N[C@H]1CCC(=O)NC[C@@H](C(=O)N[C@@H](Cc2c[nH]c3ccccc23)C(N)=O)NC(=O)[C@H](CCCNC(=N)N)NC(=O)[C@@H](Cc2ccccc2)NC(=O)[C@H](Cc2c[nH]cn2)NC1=O | – | human, plasma | subcutaneous, 0.1 mg, single dose, healthy volunteers | – | Vd/F | 35.1 L
CCCOc1ccc([C@H]2CNC(=O)N2c2ccc3[nH]cnc3c2)cc1 | – | human, plasma | oral, 400 mg, single dose, fasted | – | AUC(0-inf) | 3560 ng·h/mL
C[C@H]1O[C@@H](O[C@H]2[C@@H](O)C[C@H](O[C@H]3[C@@H](O)C[C@H](O[C@H]4CC[C@@]5(C)[C@H](CC[C@@H]6[C@@H]5C[C@@H](O)[C@]5(C)[C@@H](C7=CC(=O)OC7)CC[C@]65O)C4)O[C@@H]3C)O[C@@H]2C)C[C@H](O)[C@@H]1O | – | patients without P-gp inhibitors, spironolactone excluded, serum | oral | – | serum trough concentration | 1.26 ± 0.04 nmol/L
CC(C)[C@H](NC(=O)[C@@H]1CCCN1C(=O)[C@H](CCCNC(=N)N)NC(=O)[C@H](CS)NC(=O)[C@H](Cc1c[nH]c2ccccc12)NC(=O)[C@H](CCCNC(=N)N)NC(=O)[C@@H](Cc1ccccc1)NC(=O)[C@H](Cc1c[nH]cn1)NC(=O)[C@H](CCC(=O)O)NC(=O)[C@H](CS)NC(=O)[C@H](CS)NC(=O)[C@H](CCCCN)NC(=O)[C@@H]1CC(=O)N[C@@H](CCCNC(=N)N)C(=O)N[C@@H](C(C)C)C(=O)N[C@@H](CC(=O)O)C(=O)N[C@H](Cc2ccc(O)cc2)C(=O)N1)C(N)=O [technetium-99m labelled] | – | C57 mouse, female, B16/F1 melanoma | intravenous, 2 h, added: NDP-MSH 10 µg co-injected | relative to: tumour over lung | uptake ratio | 1.82
Cc1cc2nc3c(=O)[nH]c(=O)nc-3n(C[C@H](O)[C@H](O)[C@H](O)CO)c2cc1C | mitochondrial swelling | BALB/cByJ female mouse liver mitochondria | 30 min, added: succinate + rotenone | relative to: CaCl2 maximal swelling | EC20 | 672 µM
CO[C@H]1C[C@@H]2CC[C@@H](C)[C@@](O)(O2)C(=O)C(=O)N2CCCC[C@H]2C(=O)O[C@H]([C@H](C)C[C@@H]2CC[C@@H](OC(=O)C(C)(CO)CO)[C@H](OC)C2)CC(=O)[C@H](C)/C=C(\C)[C@@H](O)[C@@H](OC)C(=O)[C@H](C)C[C@H](C)/C=C/C=C/C=C/1C | – | human, whole blood | intravenous, 35 mg/m2 weekly, 0 to 24 h post dose, cycle 5, added: valproic acid | – | median AUC(0-t) | 9090 ng·h/mL
COc1cccc2c1C(=O)c1c(O)c3c(c(O)c1C2=O)C[C@@](O)(C(=O)CO)C[C@@H]3O[C@H]1C[C@H](N)[C@H](O)[C@H](C)O1 | – | mouse, E0771 tumour-bearing, kidney | intravenous, 92 µmol/kg | – | Tmax | 0.5 h
CCCCC1(CCCC)CN(c2ccccc2)c2cc(SC)c(OCC(=O)N[C@@H](C(=O)NCC(=O)O)c3ccccc3)cc2S(=O)(=O)C1 | – | human, plasma | oral, 10 mg, before breakfast | – | AUC(0-t) | 1.09 ng·h/mL
Cn1nnc2c(C(N)=O)ncn2c1=O | chemical stability, HPLC | PBS | pH 7.4 | – | half-life | 1.98 h
S=C(NCCCc1c[nH]cn1)NCCCN(Cc1ccc(Cl)c(Cl)c1)c1ccc(Br)cn1 | – | male C57BL/6 mouse, plasma | intraperitoneal, 30 mg/kg, 15 min | – | concentration | 2360 ng/mL
C[C@]12CC[C@@H]3c4ccc(O)cc4CC[C@H]3[C@@H]1C[C@@H](O)[C@@H]2O | GC-MS | breast cancer women on NSAI, serum | vaginal, 0.03 mg daily, 6 h, day 28 | – | median serum concentration | 0 ng/mL
COc1cc2ncnc(Nc3ccc(F)c(Cl)c3)c2cc1OCCCN1CCOCC1 | cytochrome c release, ELISA | BALB/cByJ female mouse liver mitochondria | 30 min | relative to: alamethicin maximal release | EC20 | 50.5 µM
O=S(=O)(O)Oc1c[nH]c2ccccc12 | – | human hemodialysis patients, plasma ultrafiltrate | pre-treatment | relative to: hemodialysis over normal subjects | free concentration ratio | 77
CO/N=C1\C[C@]2(C[C@@H]3C[C@@H](C/C=C(\C)C[C@@H](C)/C=C/C=C4\CO[C@@H]5[C@H](O)C(C)=C[C@@H](C(=O)O3)[C@]45O)O2)O[C@H](/C(C)=C/C(C)C)[C@H]1C | HPLC | lamb, cranial jejunum mucosa | intraruminal, 0.2 mg/kg, 2 days post-treatment | – | drug concentration | 57.1 ± 5.3 ng/g

Structure (SMILES) | assay | system | setting | scale | measurement | value
CCOc1ccc2c(c1)C(C)=CC(C)(C)N2 | LC-MS/MS | laying hens, liver | oral, 50 mg/kg feed, 56 days, after glucuronidase | – | residue concentration | 96.2 ± 50.6 ng/g
CC1=C(CC(=O)O)c2cc(F)ccc2/C1=C\c1ccc([S+](C)[O-])cc1 (stereo not shown) | mitochondrial swelling | BALB/cByJ female mouse liver mitochondria | 30 min, added: succinate + rotenone | relative to: CaCl2 maximal swelling | EC20 | > 200 µM
Cc1c2oc3c(C)ccc(C(=O)N[C@@H]4C(=O)N[C@H](C(C)C)C(=O)N5CCC[C@H]5C(=O)N(C)CC(=O)N(C)[C@@H](C(C)C)C(=O)O[C@@H]4C)c3nc-2c(C(=O)N[C@@H]2C(=O)N[C@H](C(C)C)C(=O)N3CCC[C@H]3C(=O)N(C)CC(=O)N(C)[C@@H](C(C)C)C(=O)O[C@@H]2C)c(N)c1=O | – | mouse, Abcc2 knockout FVB, plasma | intravenous, 0.5 mg/kg | – | AUC(0-inf) | 145 ng·h/mL
COc1cccc(-c2ccc(NC(=O)C3=C(C(=O)O)CCC3)c(F)c2)c1 | – | male human, plasma | oral, 50 mg, multiple doses, once daily | – | Vd/F | 13 L
CO[C@]12C[C@@H](COC(=O)c3cncc(Br)c3)CN(C)[C@@H]1Cc1cn(C)c3cccc2c13 | mitochondrial swelling | BALB/cByJ female mouse liver mitochondria | 30 min, added: succinate + rotenone | relative to: CaCl2 maximal swelling | EC20 | 170 µM
O=c1ccc2ccc(O)c(O)c2o1 | – | human, fasted baseline, cerebrospinal fluid | – | – | mean concentration | 19.6 nM
CCCCCCCCCCCCCCC[C@H](O)[C@@H](N)CO | – | human, phase I, plasma | intravenous, 750 mg/m^2, day 1, monotherapy | – | AUC | 102 µM·h
Cn1c(=O)c2c(ncn2C)n(C)c1=O | mitochondrial swelling | BALB/cByJ female mouse liver mitochondria | 30 min, added: succinate + rotenone | relative to: CaCl2 maximal swelling | EC20 | > 400 µM
Cn1c(-c2ccc(C(N)=O)cc2F)nnc1C(C)(C)Oc1c(F)cc(Cl)cc1F | – | healthy young Japanese subjects, plasma | oral, 10 mg once daily, day 18, 14 days dosing | – | AUC(0-tau) median | 1760 ng·h/mL
Cc1cc(C(=O)NC(C)(C)COc2cccc3c2C(N)=NS(=O)(=O)N3)cc(C)n1 | – | male Sprague-Dawley rat, plasma | oral, 100 mg/kg, single dose | – | bioavailability | 0.19%
Cc1ccc(NC(=O)c2ccc(CN3CCNCC3)cc2)cc1Nc1nccc(-c2cccnc2)n1 | – | human patients, plasma | oral, 400 mg/day of imatinib, day 14 of cycle 1, added: IL-2 6 MIU/day days 10-14 | – | AUC(0-24h) | 13200 ng·h/mL
Cc1cnn2ncc(-c3ccnc(N(C)C)n3)c2c1 | – | rat liver microsomes | – | – | intrinsic clearance | 164 µL/min/mg
Cc1nc2cccc(OCC(C)(C)C(=O)NC(C)C)c2c(N)c1C(=O)O | – | female Sprague-Dawley rat, plasma | dietary, 60 mg/kg/day, day 7 | – | Tmax | 6 h
O=C(c1cccnc1-c1ccncc1)N1CCC(O)(Cc2ccccc2)CC1 | – | healthy human, plasma | oral, 400 mg once daily, day 1, arithmetic mean | – | AUCinf | 2520 ng·h/mL
N=C(N)NCCC[C@H](NC(=O)[C@H](Cc1c[nH]c2ccccc12)NC(=O)[C@H](CCC(N)=O)NC(=O)[C@H](Cc1c[nH]c2ccccc12)NC(=O)[C@H](CCCNC(=N)N)NC(=O)[C@H](Cc1c[nH]c2ccccc12)NC(=O)[C@H](CCC(N)=O)NC(=O)[C@H](Cc1c[nH]c2ccccc12)NC(=O)[C@@H](N)CCCNC(=N)N)C(N)=O | – | human erythrocytes O+ | 200 µg/mL, 2 h, 37 °C | – | hemolysis | 13.2%
CS(=O)(=O)c1ccc(-c2cnc(N)c(-c3ccc(C(F)(F)F)nc3)c2)cc1 | – | Sprague-Dawley rat, pregnant female, plasma | oral, 30 mg/kg/day, gestation day 6 | – | AUC(0-t) | 126000 ng·h/mL
C[C@H](Oc1ccc(-c2nc(-c3ccc4[nH]cnc4c3)no2)cc1C(F)(F)F)C(F)(F)F.Cl | – | cynomolgus monkey aneurysm model, plasma | 0.1 mg/kg once daily, 12 months dosing | – | predose plasma concentration | 7 ± 1 nM
CS(=O)(=O)n1cc2c(n1)CN([C@H]1CO[C@H](c3cc(F)ccc3F)[C@@H](N)C1)C2 | – | healthy male human, plasma | oral, 1.5 mg, fasted, geometric mean | – | AUC(0-24h) | 0.34 µM·h

Repeated from above:
Structure (SMILES) | assay | system | setting | scale | measurement | value
O=S(=O)(O)Oc1c[nH]c2ccccc12 | – | human hemodialysis patients, plasma ultrafiltrate | pre-treatment | relative to: hemodialysis over normal subjects | free concentration ratio | 77
CO[C@]12C[C@@H](COC(=O)c3cncc(Br)c3)CN(C)[C@@H]1Cc1cn(C)c3cccc2c13 | mitochondrial swelling | BALB/cByJ female mouse liver mitochondria | 30 min, added: succinate + rotenone | relative to: CaCl2 maximal swelling | EC20 | 170 µM
CC(C)Cc1ccc(C(C)C(=O)O)cc1 (stereo not shown) | mitochondrial swelling | BALB/cByJ female mouse liver mitochondria | 30 min, added: succinate + rotenone | relative to: CaCl2 maximal swelling | EC20 | > 200 µM
Cc1cc2nc3c(=O)[nH]c(=O)nc-3n(C[C@H](O)[C@H](O)[C@H](O)CO)c2cc1C | mitochondrial swelling | BALB/cByJ female mouse liver mitochondria | 30 min, added: succinate + rotenone | relative to: CaCl2 maximal swelling | EC20 | 672 µM
